# Experimental data pooled from the literature.
# Protocols differ between the studies behind these lines. Several values in a cell are separate wells, animals, samples, runs or records.
Molecule,target or system,assay,test system,conditions,how to read,endpoint,value
CC(=O)N1CCN([C@H]2CCN(C(=O)N(C)[C@H](C)c3cc(C(F)(F)F)cc(C(F)(F)F)c3)[C@@H](c3ccc(F)cc3C)C2)CC1,SARS-CoV-2,"viral replication, GFP plate reader screen",,cell-based,,EC50,> 25.1 µM
O=C(c1ccc(-n2nnc3cccnc32)cc1)N(c1ncccc1Cl)[C@@H]1CCCNC1,SARS-CoV-2,,,"concentration not given, Paris laboratory",,viral replication inhibition,inactive
Cc1nn(-c2ccc(Cl)cc2)c2c1C(c1ccc(Cl)c(Cl)c1)C(C#N)=C(N)O2 (stereo not drawn),SARS-CoV-2,viral replication,Vero,10 µM,,viral reduction,2.35%
CC(C)(C)c1cc(C(C)(C)C)c(NC(=O)c2c[nH]c3ccccc3c2=O)cc1O,SARS-CoV-2,"viral replication, high-content imaging screen",,cell-based,,EC50,> 25.1 µM
O=C(CN1CCC(CN2Cc3ccccc3C2=O)CC1)c1ccc(F)cc1,SARS-CoV-2,"viral replication, anti-nucleoprotein immunostaining",Vero E6,,,IC50,> 10 µM
CC(C)=CCc1c(O)ccc(C(=O)/C=C/c2ccc(O)cc2)c1O,SARS-CoV-2,viral cytopathic effect,Vero E6,100 µM,,mean inhibition,90%
CC(C)(C)[C@]1(O)CCN2C[C@@H]3c4ccccc4CCc4cccc(c43)[C@H]2C1,SARS-CoV-2,viral replication,A549 expressing ACE2,inactive set pIC50 4,,IC50,> 10 µM
Cc1nn(-c2ccc(Cl)cc2)c2c1C(c1ccc(Br)cc1)C(C#N)=C(N)O2 (stereo not drawn),SARS-CoV-2,"RT-qPCR, refers to: viral RNA",Vero,10 µM,higher means less virus,Ct value,24.2 cycles
CC[C@H](C)[C@H](NC(=O)[C@H](CC(C)C)NC(=O)[C@H](Cc1c[nH]c2ccccc12)NC(=O)[C@H](CCC(N)=O)NC(=O)[C@@H](NC(=O)[C@H](Cc1ccccc1)NC(=O)[C@H](C)NC(=O)[C@H](CCCCNC(=O)COCCOCCNC(=O)COCCOCCNC(=O)CC[C@H](NC(=O)CCCCCCCCCCCCCCCCCCC(=O)O)C(=O)O)NC(=O)[C@H](CCC(N)=O)NC(=O)[C@H](C)NC(=O)[C@@H](NC(=O)[C@H](CCCCN)NC(=O)[C@H](CC(=O)O)NC(=O)[C@H](CC(C)C)NC(=O)C(C)(C)NC(=O)[C@@H](NC(=O)[C@H](CO)NC(=O)[C@H](Cc1ccc(O)cc1)NC(=O)[C@H](CC(=O)O)NC(=O)[C@H](CO)NC(=O)[C@@H](NC(=O)[C@H](Cc1ccccc1)NC(=O)[C@@H](NC(=O)CNC(=O)[C@H](CCC(=O)O)NC(=O)C(C)(C)NC(=O)[C@@H](N)Cc1ccc(O)cc1)[C@@H](C)O)[C@@H](C)O)[C@@H](C)CC)[C@@H](C)CC)C(C)C)C(=O)N[C@@H](C)C(=O)NCC(=O)NCC(=O)N1CCC[C@H]1C(=O)N[C@@H](CO)C(=O)N[C@@H](CO)C(=O)NCC(=O)N[C@@H](C)C(=O)N1CCC[C@H]1C(=O)N1CCC[C@H]1C(=O)N1CCC[C@H]1C(=O)N[C@@H](CO)C(N)=O,,,healthy human,"8.0 mg, single ascending dose",,injection site reaction,0%
O=C(N[C@H](CO)[C@H](O)c1ccc([N+](=O)[O-])cc1)C(Cl)Cl,SARS-CoV-2,,,"concentration not given, Paris laboratory",,viral replication inhibition,inactive
CNC(=O)c1ccc(-c2cnc3ncc(Cc4ccc5ncccc5c4)n3n2)cc1F,SARS-CoV-2,,Vero C1008,,reference: CC50 over EC50,selectivity index,2.43
COc1ccc2cc1Oc1ccc(cc1)C[C@H]1c3cc(c(OC)cc3CCN1C)Oc1c(OC)c(OC)cc3c1[C@H](C2)N(C)CC3,SARS-CoV-2,"viral replication, high-content imaging screen",BetaCov/Belgium/GHB-03021/2020,cell-based,,EC50,> 50.1 µM
Cc1nn(-c2ccc(Cl)cc2)c2c1C(c1ccc(-c3ccccc3)cc1)C(C#N)=C(N)O2 (stereo not drawn),SARS-CoV-2,viral replication,Vero,10 µM,,viral reduction,5.04%
CCN(CC)CCOCCOC(=O)C1(c2ccccc2)CCCC1,SARS-CoV-2,"viral replication, RT-qPCR",A549 expressing ACE2,,,IC50,> 10 µM
CCc1ccc(Sc2cc(C(=O)NCCCN3CCCC(C)C3)c3ccccc3n2)cc1 (stereo not drawn),SARS-CoV-2,cytopathic effect,USA_WA1/2020,first round 5-point,,maximum response,91.6%
C#C[C@]1(O)CC[C@H]2[C@@H]3CCC4=CCCC[C@@H]4[C@H]3CC[C@@]21C,SARS-CoV-2,"viral replication, GFP plate reader screen",,cell-based,,EC50,> 50.1 µM
Nc1ccn(C[C@@H](CO)OCP(=O)(O)O)c(=O)n1,SARS-CoV-2,viral replication,Huh-7,,,IC50,> 2 µM
CC[C@@H](C(=O)[C@@H](C)[C@@H](O)[C@H](C)CCc1ccc(C)c(O)c1C(=O)O)[C@H]1O[C@](CC)([C@H]2CC[C@](O)(CC)[C@H](C)O2)C[C@@H]1C,SARS-CoV-2,"viral replication, high-content imaging screen",,cell-based,,EC50,1.07 µM
CN(C)CCC(c1ccc(Cl)cc1)c1ccccn1 (stereo not drawn),SARS-CoV-2,viral replication,Vero E6,inactive set pIC50 4,,IC50,> 10 µM
Nc1ncnc2c([C@@H]3N[C@H](CO)[C@@H](O)[C@H]3O)c[nH]c12,Marburg virus,antibody staining,"HeLa, Musoke",50 µM,,antigen-positive cells,0.237% and 2.6%
CC(C)N1CCN(c2ccc(OCC3COC(Cn4cncn4)(c4ccc(Cl)cc4Cl)O3)cc2)CC1 (stereo not drawn),SARS-CoV-2,viral replication,Huh-7,,,IC50,> 2 µM
O=C1c2c(O)cccc2Cc2cccc(O)c21,SARS-CoV-2,"viral replication, GFP plate reader screen",,cell-based,,EC50,> 100 µM
O=C(/C=C/c1ccc(O)c(O)c1/C=C/c1ccc(O)c(O)c1)O[C@H](Cc1ccc(O)c(O)c1)C(=O)O,SARS-CoV-2,viral replication,Vero E6,0.7812 µM,reference: mean of replicates,CPE inhibition,0%
CCN(CC)CCNC(=O)c1cc(-c2ccc(Br)s2)nc2ccccc12,SARS-CoV-2,cytopathic effect,USA_WA1/2020,"retest, 8-point, duplicates",,maximum response,-0.296%
COc1ccc(C#Cc2ccccc2)c(CCC(C)N(C)CCc2ccc(OC)c(OC)c2)c1 (stereo not drawn),SARS-CoV-2,"viral replication, high-content imaging screen",BetaCov/Belgium/GHB-03021/2020,cell-based,,EC50,> 100 µM
Cc1nn(-c2ccc(Cl)cc2)c2c1C(c1ccc(F)cc1F)C(C#N)=C(N)O2 (stereo not drawn),SARS-CoV-2,,Vero C1008,10 µM,reference: positive control,viral titre log reduction,0.288 log10
CCN(CC)Cc1ccc(Nc2ccnc3cc(Cl)ccc23)cc1O,SARS-CoV-2,"cytopathic effect, cell-based CPE",USA_WA1/2020,"round 2, 5-point dilution",,AC50,8.91 µM
[N-]=[N+]=N[C@]1(CO)O[C@@H](n2ccc(N)nc2=O)[C@@H](F)[C@@H]1O,SARS-CoV-2,,"Vero E6, USA-WA1/2020 nLuc","concentration not given, regardless of pre-treatment duration",,viral replication,no inhibition
CCCCCCCCCC(O)CC(=O)CCc1ccc(O)c(OC)c1 (stereo not drawn),SARS-CoV-2,viral replication,Huh-7,,,IC50,> 2 µM
O=C(NCCCN1CCCCCC1)c1ccc2c(c1)sc1nc(-c3ccccc3)cn12,SARS-CoV-2,"cytopathic effect, cell-based CPE",USA_WA1/2020,,,AC50,14.1 µM
Fc1ccc(-c2ccc(CN3CCN(c4cccc5ccoc45)CC3)[nH]2)cc1,SARS-CoV-2,viral replication,"Huh-7-ACE2, USA-WA1/2020",,,EC90,~6.86 µM
CC(C)(C)[C@H](NC(=O)C(F)(F)F)C(=O)N1C[C@H]2[C@@H]([C@H]1C(=O)N[C@H](C#N)C[C@@H]1CCNC1=O)C2(C)C,SARS-CoV-2,"viral replication, infectious virus",Vero E6,0.3333 µM,,inhibition,108%
Cc1ccc2nc(C3CCCN(Cc4cccc(-c5cccnc5)c4)C3)[nH]c(=O)c2c1 (stereo not drawn),SARS-CoV-2,cytopathic effect,USA_WA1/2020,"round 2, 5-point",,maximum response,74.9%
C1=C(c2ccc(CN3CCCCC3)cc2)N2CCN=C2c2ccccc21,SARS-CoV-2,viral replication,"293T-ACE2, USA-WA1/2020",,,EC90,0.343 µM
CCCCNC(=O)C1CCCN(Cc2nc(-c3ccc(Cl)cc3)oc2C)C1 (stereo not drawn),SARS-CoV-2,cytopathic effect,USA_WA1/2020,"round 2, 5-point",,efficacy,51.9%
COc1ccc(C[C@@H]2c3cc(Oc4cc(C[C@@H]5c6cc(O)c(OC)cc6CCN5C)ccc4O)c(OC)cc3CCN2C)cc1,SARS-CoV-2,cytopathic effect,Vero E6,"25 µM, replicate run",,mean inhibition,0%
Cc1ccc(NS(=O)(=O)c2cccc(C(=O)NC3CCN(c4ncnc5[nH]cnc45)CC3)c2)cc1,SARS-CoV-2,,"A549-ACE2, Wuhan-Hu-1",0.03048 µM,reference: untreated,relative infection,101%
CCCN1CCC=C(c2cc(-c3ccc(C)cc3)no2)C1.O=C(O)C(=O)O,SARS-CoV-2,,,"concentration not given, Paris laboratory",,viral replication inhibition,inactive
O=C(O[C@@H]1Cc2c(O)cc(O)cc2O[C@@H]1c1cc(O)c(O)c(O)c1)c1cc(O)c(O)c(O)c1,SARS-CoV-2,viral replication,Vero E6,3.125 µM,,CPE inhibition,0%
CCCN(CCC)CCNC(=O)c1cc(-c2ccc(Br)s2)nc2ccccc12,SARS-CoV-2,cytopathic effect,USA_WA1/2020,"retest, 8-point, duplicates",,efficacy,82%
CN1CCCN(C(c2ccccc2)c2ccc(Cl)cc2)CC1 (stereo not drawn),SARS-CoV-2,"viral replication, GFP plate reader screen",,cell-based,,EC50,> 20 µM
O=C(c1ccc(OCCN2CCCCC2)cc1)c1c(-c2ccc(O)cc2)sc2cc(O)ccc12,SARS-CoV-2,viral replication,Huh-7,,,IC50,> 2 µM
calpain inhibitor III,SARS-CoV-2,viral replication,USA-WA1/2020,2.5 µM,,inhibition,95.4%
Cc1ccccc1CN1C(=O)c2ccccc2Sc2ccc(C(=O)NCCCN3CCOCC3)cc21,SARS-CoV-2,cytopathic effect,USA_WA1/2020,"round 1, 5-point",,efficacy,68.7%
CC(=O)[C@H]1CC[C@H]2[C@@H]3CCC4=CC(=O)CC[C@]4(C)[C@H]3CC[C@]12C,SARS-CoV-2,,,"concentration not given, Paris laboratory",,viral replication inhibition,inactive

# For quick reference, copied from above:
Molecule,target or system,assay,test system,conditions,how to read,endpoint,value
O=C(O[C@@H]1Cc2c(O)cc(O)cc2O[C@@H]1c1cc(O)c(O)c(O)c1)c1cc(O)c(O)c(O)c1,SARS-CoV-2,viral replication,Vero E6,3.125 µM,,CPE inhibition,0%
C#C[C@]1(O)CC[C@H]2[C@@H]3CCC4=CCCC[C@@H]4[C@H]3CC[C@@]21C,SARS-CoV-2,"viral replication, GFP plate reader screen",,cell-based,,EC50,> 50.1 µM
Cc1ccccc1CN1C(=O)c2ccccc2Sc2ccc(C(=O)NCCCN3CCOCC3)cc21,SARS-CoV-2,cytopathic effect,USA_WA1/2020,"round 1, 5-point",,efficacy,68.7%
COc1ccc2cc1Oc1ccc(cc1)C[C@H]1c3cc(c(OC)cc3CCN1C)Oc1c(OC)c(OC)cc3c1[C@H](C2)N(C)CC3,SARS-CoV-2,"viral replication, high-content imaging screen",BetaCov/Belgium/GHB-03021/2020,cell-based,,EC50,> 50.1 µM
CN(C)CCC(c1ccc(Cl)cc1)c1ccccn1 (stereo not drawn),SARS-CoV-2,viral replication,Vero E6,inactive set pIC50 4,,IC50,> 10 µM
